Assay results from different studies.
Numbers after ± are the reported error.
EPHX2: Bifunctional epoxide hydrolase 2 (EPHX2, Homo sapiens, UniProt P34913)
Nr3c1: Glucocorticoid receptor (Nr3c1, Rattus norvegicus, UniProt P06536)
T1: miRNA, hairpin closed by GAAA loop (Homo sapiens); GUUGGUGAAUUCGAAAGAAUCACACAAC

The Kd of `CCCN(CC(=O)N(CCC)CC(=O)N(CCC)CC(=O)N(CCC)CC(=O)N(CCCn1cc(CN2CCN(c3cc(Nc4cc(Nc5ccc6ccccc6n5)ccn4)nc(C)n3)CC2)nn1)CC(N)=O)C(=O)CCCOc1cc(-c2nc3cc(N)ccc3[nH]2)cc(-c2nc3cc(N)ccc3[nH]2)c1` is reported as 190 nM (T1, miRNA, hairpin closed by GAAA loop (Homo sapiens); microscale thermophoresis).
The ΔS of `CC(C)CC(NC(=O)C(NC(=O)NC(C(=O)O)C(C)C)C1CCNC(=N)N1)C(=O)NCCCNC(C(=O)O)C(OC1OC(CN)C(O)C1O)C1OC(n2ccc(=O)[nH]c2=O)C(O)C1O` (stereo not drawn) is reported as 10.1 ± 1.1 cal/mol/K (Phospho-N-acetylmuramoyl-pentapeptide-transferase (mraY, Aquifex aeolicus, UniProt O66465, N255A); ITC; N255A mutant).
`CCc1cc(C)n2nc(-c3ccc(OCC[18F])cc3)c(CC(=O)N(CC)CC)c2n1` gave a tumour uptake of 0.4 %ID/cc (Translocator protein (Tspo, Rattus norvegicus, UniProt P16257); PET; rat, C6 glioma, tumour; last 30 min of scan).
For `CCCCCCCCOP(=O)(CCCCCCCC)O[C@@H]1O[C@H](CO)[C@@H](O)[C@H](O)[C@H]1F` (mixture of isomers), the kinact/Ki was 182 M⁻¹ s⁻¹ (Lysosomal acid glucosylceramidase (GBA1, Homo sapiens, UniProt P04062); enzyme activity, irreversible inhibitor; pH 5.5, 37 °C, added: 2,4-dinitrophenyl beta-D-glucopyranoside).
`Nc1ncnc2c1ncn2C1OC(COP(=O)(O)OP(=O)(O)OCC2OC(O)C(O)C2O)C(O)C1O` (stereo not drawn): “EC50 fold increase” ~10 fold (TRPM2 (Nematostella vectensis, UniProt A7T1N0, T179A); channel activation, agonist, inside-out patch clamp; T179A, 2.5 µM PIP2, added: 125 µM Ca2+; relative to: wild type).
With `N#CCN1CCN(C(=S)c2ccc(-c3cc(Cl)ccc3Cl)o2)CC1` the Emax was 56% (Atrial natriuretic peptide receptor 2 (NPR2, Homo sapiens, UniProt P20594); HTRF, refers to: cGMP; HEK293 overexpressing GC-B; added: subthreshold CNP; relative to: saturating CNP).
`NC(=O)CN1C(=O)C(O)(CC(=O)c2cccc(N)c2)c2ccccc21` (stereo not drawn) has a binding stoichiometry of 3.97 ± 0.168 (uncharacterized protein (Leishmania donovani, UniProt A0A3Q8IA09); competitive ITC; concentration not given, added: glutamate 60 µM).
`CCOC(=O)C1CCCN(C(=O)c2ccc(NC(=O)NC34CC5CC(C)(CC(C)(C5)C3)C4)cc2)C1` (stereo not drawn) — result for “lipophilic ligand efficiency”: 5.94 (EPHX2).
The covalent modification of `C=CC(=O)N1C[C@H](C)N(c2nc(OC[C@@]34CCCN3C[C@H](F)C4)nc3c(F)c(-c4ccc(F)c5sc(N)c(C#N)c45)c(C(F)(F)F)cc23)C[C@H]1C` is reported as 100% (GTPase KRas, GDP-bound (KRAS, Homo sapiens, UniProt P01116, C118S/G12C); MALDI-TOF MS; 15 min, GDP-loaded).
`O=C(Nc1ccc(OC(F)(F)F)cc1)N1CCC(Cc2cccc(Oc3ccc(C(F)(F)F)cn3)c2)CC1` has a kinact of 0.000367 s⁻¹ (Fatty-acid amide hydrolase 1 (FAAH, Homo sapiens, UniProt O00519); enzyme activity, inhibitor).
Under “recovery time constant”, `CCCC[C@H](C)/C=C(C)/C=C/C(=O)O` is recorded as 7.3 ± 2.1 ms (Transient receptor potential cation channel subfamily A member 1 (TRPA1, Homo sapiens, UniProt O75762); ion current, whole-cell patch clamp; HEK-293T transfected; 5 µM, holding potential -60 mV, added: 100 µM AITC).
The reversal potential of `CC(C)(C)CCN1C[C@@H]2[C@@H](CNC(=O)c3cc(Cl)cc(Cl)c3)[C@@H]2C1.Cl` is reported as 37.2 ± 2.89 mV (Voltage-dependent T-type calcium channel subunit alpha-1H (CACNA1H, Homo sapiens, UniProt O95180); whole-cell patch clamp; HEK-293T, transfected; 100 nM).
The remaining activity of `CCCCCCCCCSc1nc2c([nH]1)c(=S)n(C)c(=O)n2C` is reported as 51% (Nr3c1; reporter gene, antagonist, MMTV-luciferase; T47D/A1-2; 10 µM, 24 h, added: 5 nM dexamethasone; relative to: maximal activity).
With `CC(C)CN(CC(C)C)C(=O)/C=C/C=C/c1ccc2c(c1)OCO2` the Hill coefficient was 1.5 ± 0.2 (Gabrb1/Gabra1 (Rattus norvegicus, UniProt P15431+P62813); GABA current potentiation, positive modulator, two-electrode voltage clamp; Xenopus oocytes expressing α1β1; added: GABA EC3-7).
The remaining activity of `CCCCCCSc1nc2c([nH]1)c(=S)n(C)c(=S)n2C` is reported as 103% (Nr3c1; reporter gene, antagonist, MMTV-luciferase; T47D/A1-2; 10 µM, 24 h, added: 5 nM dexamethasone; relative to: maximal activity).
`CC(C)[C@H](NC(=O)[C@H](CCCCN)NC(=O)[C@H](C)NC(=O)[C@H](CCCCN)NC(=O)CNC(=O)[C@H](CCCNC(=N)N)NC(=O)[C@@H](NC(=O)[C@H](CCCCN)NC(=O)[C@@H](N)CO)[C@@H](C)O)C(=O)N[C@H](C(=O)NCC(=O)N[C@@H](CS)C(=O)N[C@@H](Cc1c[nH]c2ccccc12)C(=O)N[C@@H](CCCCN)C(=O)O)[C@@H](C)O` has a koff of 0.0256 ± 0.00522 s⁻¹ (TPM1/ACTA1, with F-actin (Oryctolagus cuniculus, UniProt P58772+P68135); binding, LSPR; F-actin-tropomyosin filament; pH 7.0).
`COCC(=O)N[C@@H](Cc1ccc(-c2cccc(OCc3ccccc3)c2)cc1)[C@H](O)[C@@H](O)C(=O)O`: activity “inactive” (CDC34, with ubiquitin (Homo sapiens, UniProt P49427); biochemical; concentration not given).
The dissociation half-time of `CCCCOc1ccc(C(=O)OCCN2CC=CCC2)cc1` is reported as 0.2 ± 0.1 h (Muscarinic acetylcholine receptor M2 (CHRM2, Homo sapiens, UniProt P08172); recovery of [3H]NMS binding after washing; membranes; 100 µM).
With `CCCCCCCCC(=O)Nc1ccc(OC)nc1C` the specific activity was 37 pmol/min/µg (Cocaine esterase (CES2, Homo sapiens, UniProt O00748); substrate; 50 µM, pH 8, 37 °C, enzyme purity 4%).
Under “lipophilic ligand efficiency”, `CNC(=O)C1CCCN(C(=O)c2ccc(NC(=O)NC34CC5CC(C)(CC(C)(C5)C3)C4)cc2)C1` (stereo not drawn) is recorded as 6.61 (EPHX2).
For `C=C1C(=O)O[C@@H]2[C@H]3C(CO)=CC(=O)C3=C(C)C[C@H](OC(=O)Cc3ccc(O)cc3)[C@@H]12`, “number of binding sites” read 1.02 (Alpha-glucosidase MAL12 (MAL12, Saccharomyces cerevisiae S288c, UniProt P53341); fluorescence quenching; concentration not given, 310 K).
With `N[C@@H](Cc1ccc(O)c(Cl)c1)C(=O)O` the k1 was 1.5 s⁻¹ (Iodotyrosine deiodinase 1 (Homo sapiens, UniProt Q6PHW0); substrate, stopped-flow; 200 µM).
With `CC(=O)O[C@H]1C(=O)[C@@]2(C)[C@H]([C@H](OC(=O)c3ccccc3)[C@]3(O)C[C@H](OC(=O)[C@H](OCOP(=O)(O)O)[C@@H](NC(=O)c4ccccc4)c4ccccc4)C(C)=C1C3(C)C)[C@]1(OC(C)=O)CO[C@@H]1C[C@@H]2O` the hydrolysis rate was 2.03 pmol/min (Alkaline phosphatase, placental type (Homo sapiens, UniProt P05187); drug formation; 100 µM, pH 7.6, 37 °C, added: 0.5 U/mL alkaline phosphatase).
`C=C1C(=O)OC2C1CCC(C)=C1CCC(C)(OC(=O)CCCCCCCCCCCNC(=O)CCCCC3SCC4NC(=O)NC43)C12` (stereo not drawn) gave an enrichment ratio of 7 fold (Ras-related protein Rab-2A (RAB2A, Homo sapiens, UniProt P61019); competitive pull-down LC-MS/MS; M9-ENL1 cell lysate; added: probe 10 µM; relative to: MCL-treated control).
For `CN(C)c1ccc(NC(=S)N(C)c2ccccc2)cc1`, “maximum ThT fluorescence” read 17 ± 3% (Alpha-synuclein (SNCA, Homo sapiens, UniProt P37840); fibril formation, ThT fluorescence kinetics; 100 µM, α-syn 2 µM, plateau phase; relative to: DMSO vehicle).
With `COc1cc(C(=O)NC2CCC(N3CCN(CC4CCC5(CCCC5)C4)CC3)CC2)c(F)cc1Nc1ncc2c(n1)N(C1CCCC1(F)F)CC(F)(F)C(=O)N2C` (stereo not drawn) the inhibition was 0.48 ± 0.02% (PLK5 (human); binding, LanthaScreen kinase binding; 10 µM).
`C=CC[C@H]1OC(=O)CCNC(=O)[C@H](C)N(C)C(=O)[C@H]([C@@H](C)CC)N(C)C(=O)[C@H]([C@@H](C)CC)NC(=O)[C@@H]2[C@@H](C)CCN2C1=O`: “KD fold change” ~20.2 fold (Platelet-derived growth factor receptor beta, extracellular domain (PDGFRB, Homo sapiens, UniProt P09619, F136A/F138A); binding, surface plasmon resonance; concentration not given; relative to: wild-type PDGFR-β).

For quick reference, copied from above:
With `N#CCN1CCN(C(=S)c2ccc(-c3cc(Cl)ccc3Cl)o2)CC1` the Emax was 56% (Atrial natriuretic peptide receptor 2 (NPR2, Homo sapiens, UniProt P20594); HTRF, refers to: cGMP; HEK293 overexpressing GC-B; added: subthreshold CNP; relative to: saturating CNP).
`NC(=O)CN1C(=O)C(O)(CC(=O)c2cccc(N)c2)c2ccccc21` (stereo not drawn) has a binding stoichiometry of 3.97 ± 0.168 (uncharacterized protein (Leishmania donovani, UniProt A0A3Q8IA09); competitive ITC; concentration not given, added: glutamate 60 µM).
